Published values gathered from unrelated publications.
Each numbered part is a random draw from the data of one study; scales do not carry over between parts.
UniProt P27361, sequence (whole entry, looked up): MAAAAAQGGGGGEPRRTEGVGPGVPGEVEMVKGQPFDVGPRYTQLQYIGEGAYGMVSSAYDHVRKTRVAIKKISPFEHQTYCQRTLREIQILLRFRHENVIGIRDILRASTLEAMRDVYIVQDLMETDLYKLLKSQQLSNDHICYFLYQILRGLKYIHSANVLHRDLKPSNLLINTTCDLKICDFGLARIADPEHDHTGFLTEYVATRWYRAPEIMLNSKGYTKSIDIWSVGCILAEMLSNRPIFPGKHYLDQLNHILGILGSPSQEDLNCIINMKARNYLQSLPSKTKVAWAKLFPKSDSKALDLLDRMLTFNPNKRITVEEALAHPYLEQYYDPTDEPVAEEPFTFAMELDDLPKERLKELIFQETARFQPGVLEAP
UniProt Q9UL54, sequence (whole entry, looked up): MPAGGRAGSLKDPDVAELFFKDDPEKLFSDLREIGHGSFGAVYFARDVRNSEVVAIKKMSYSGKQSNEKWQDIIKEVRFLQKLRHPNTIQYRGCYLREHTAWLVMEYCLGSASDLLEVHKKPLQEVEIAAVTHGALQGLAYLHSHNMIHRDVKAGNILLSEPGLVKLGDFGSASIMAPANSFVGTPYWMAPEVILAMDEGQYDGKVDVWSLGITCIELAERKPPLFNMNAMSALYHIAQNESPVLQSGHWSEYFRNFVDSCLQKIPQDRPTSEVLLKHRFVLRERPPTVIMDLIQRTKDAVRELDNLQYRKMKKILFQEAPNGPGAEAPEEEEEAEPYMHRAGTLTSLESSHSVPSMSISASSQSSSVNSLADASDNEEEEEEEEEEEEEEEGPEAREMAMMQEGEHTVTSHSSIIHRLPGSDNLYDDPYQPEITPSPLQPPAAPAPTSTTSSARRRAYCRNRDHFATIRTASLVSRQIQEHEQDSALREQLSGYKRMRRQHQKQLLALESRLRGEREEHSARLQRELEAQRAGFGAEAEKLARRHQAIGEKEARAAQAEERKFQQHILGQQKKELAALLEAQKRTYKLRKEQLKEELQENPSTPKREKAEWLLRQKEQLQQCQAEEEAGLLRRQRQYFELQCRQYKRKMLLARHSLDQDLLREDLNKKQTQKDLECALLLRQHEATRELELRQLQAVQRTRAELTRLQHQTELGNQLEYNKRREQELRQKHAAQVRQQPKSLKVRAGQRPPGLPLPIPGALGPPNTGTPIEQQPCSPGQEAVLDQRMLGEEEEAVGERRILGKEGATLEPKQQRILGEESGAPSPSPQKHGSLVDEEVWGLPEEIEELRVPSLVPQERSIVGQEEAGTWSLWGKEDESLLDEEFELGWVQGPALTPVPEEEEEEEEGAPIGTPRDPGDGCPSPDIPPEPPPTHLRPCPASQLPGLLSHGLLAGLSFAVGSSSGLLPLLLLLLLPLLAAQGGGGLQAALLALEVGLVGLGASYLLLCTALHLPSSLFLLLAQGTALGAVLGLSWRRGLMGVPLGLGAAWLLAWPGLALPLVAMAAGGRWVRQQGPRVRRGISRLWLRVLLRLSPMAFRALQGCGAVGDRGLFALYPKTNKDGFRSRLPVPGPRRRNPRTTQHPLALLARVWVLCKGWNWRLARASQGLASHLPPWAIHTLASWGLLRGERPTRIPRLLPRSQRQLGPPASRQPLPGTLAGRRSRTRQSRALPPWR
UniProt P52333, sequence (whole entry, looked up): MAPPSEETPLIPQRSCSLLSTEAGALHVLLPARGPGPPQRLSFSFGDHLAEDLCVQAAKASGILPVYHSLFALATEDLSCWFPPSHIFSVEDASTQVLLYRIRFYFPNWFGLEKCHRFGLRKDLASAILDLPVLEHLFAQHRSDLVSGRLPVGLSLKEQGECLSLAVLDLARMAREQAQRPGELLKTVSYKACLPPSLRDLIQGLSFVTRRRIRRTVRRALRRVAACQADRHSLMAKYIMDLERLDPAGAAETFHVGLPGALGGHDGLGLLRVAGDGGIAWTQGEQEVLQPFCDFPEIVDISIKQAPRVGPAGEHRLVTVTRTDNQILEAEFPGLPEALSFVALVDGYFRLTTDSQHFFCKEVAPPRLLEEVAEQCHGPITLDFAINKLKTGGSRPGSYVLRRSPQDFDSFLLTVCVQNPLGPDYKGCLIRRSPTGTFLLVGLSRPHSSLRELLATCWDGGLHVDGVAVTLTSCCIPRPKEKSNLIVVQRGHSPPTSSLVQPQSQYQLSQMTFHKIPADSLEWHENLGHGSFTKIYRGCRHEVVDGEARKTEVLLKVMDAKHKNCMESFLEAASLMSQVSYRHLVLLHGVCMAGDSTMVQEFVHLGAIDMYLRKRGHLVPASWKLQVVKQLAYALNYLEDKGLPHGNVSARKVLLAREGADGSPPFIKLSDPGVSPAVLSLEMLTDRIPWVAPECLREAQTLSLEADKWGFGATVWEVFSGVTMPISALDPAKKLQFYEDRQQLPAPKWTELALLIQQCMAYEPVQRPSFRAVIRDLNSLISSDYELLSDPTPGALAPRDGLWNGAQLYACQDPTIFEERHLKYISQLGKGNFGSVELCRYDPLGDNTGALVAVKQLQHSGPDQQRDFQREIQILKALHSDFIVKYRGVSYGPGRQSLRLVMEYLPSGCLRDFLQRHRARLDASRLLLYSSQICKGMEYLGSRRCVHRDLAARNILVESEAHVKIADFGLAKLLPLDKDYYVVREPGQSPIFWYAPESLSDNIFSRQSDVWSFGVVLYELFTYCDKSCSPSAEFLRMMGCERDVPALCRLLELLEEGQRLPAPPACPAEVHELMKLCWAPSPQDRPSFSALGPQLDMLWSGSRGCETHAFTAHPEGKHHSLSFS
UniProt P06239, sequence (whole entry, looked up): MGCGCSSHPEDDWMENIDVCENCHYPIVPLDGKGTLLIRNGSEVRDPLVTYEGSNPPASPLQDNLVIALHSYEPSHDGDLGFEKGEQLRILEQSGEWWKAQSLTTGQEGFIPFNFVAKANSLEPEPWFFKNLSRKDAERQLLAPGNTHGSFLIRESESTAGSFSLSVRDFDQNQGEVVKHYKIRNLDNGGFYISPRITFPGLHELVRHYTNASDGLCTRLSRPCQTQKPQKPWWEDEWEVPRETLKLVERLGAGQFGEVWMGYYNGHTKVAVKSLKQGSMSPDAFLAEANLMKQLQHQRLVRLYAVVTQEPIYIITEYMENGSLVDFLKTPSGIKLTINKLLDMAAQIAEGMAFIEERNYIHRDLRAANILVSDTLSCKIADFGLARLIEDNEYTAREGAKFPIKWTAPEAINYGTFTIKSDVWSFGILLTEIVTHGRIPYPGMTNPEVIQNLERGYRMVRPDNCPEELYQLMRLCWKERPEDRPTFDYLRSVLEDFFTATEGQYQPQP
UniProt Q96PY6, sequence (whole entry, looked up): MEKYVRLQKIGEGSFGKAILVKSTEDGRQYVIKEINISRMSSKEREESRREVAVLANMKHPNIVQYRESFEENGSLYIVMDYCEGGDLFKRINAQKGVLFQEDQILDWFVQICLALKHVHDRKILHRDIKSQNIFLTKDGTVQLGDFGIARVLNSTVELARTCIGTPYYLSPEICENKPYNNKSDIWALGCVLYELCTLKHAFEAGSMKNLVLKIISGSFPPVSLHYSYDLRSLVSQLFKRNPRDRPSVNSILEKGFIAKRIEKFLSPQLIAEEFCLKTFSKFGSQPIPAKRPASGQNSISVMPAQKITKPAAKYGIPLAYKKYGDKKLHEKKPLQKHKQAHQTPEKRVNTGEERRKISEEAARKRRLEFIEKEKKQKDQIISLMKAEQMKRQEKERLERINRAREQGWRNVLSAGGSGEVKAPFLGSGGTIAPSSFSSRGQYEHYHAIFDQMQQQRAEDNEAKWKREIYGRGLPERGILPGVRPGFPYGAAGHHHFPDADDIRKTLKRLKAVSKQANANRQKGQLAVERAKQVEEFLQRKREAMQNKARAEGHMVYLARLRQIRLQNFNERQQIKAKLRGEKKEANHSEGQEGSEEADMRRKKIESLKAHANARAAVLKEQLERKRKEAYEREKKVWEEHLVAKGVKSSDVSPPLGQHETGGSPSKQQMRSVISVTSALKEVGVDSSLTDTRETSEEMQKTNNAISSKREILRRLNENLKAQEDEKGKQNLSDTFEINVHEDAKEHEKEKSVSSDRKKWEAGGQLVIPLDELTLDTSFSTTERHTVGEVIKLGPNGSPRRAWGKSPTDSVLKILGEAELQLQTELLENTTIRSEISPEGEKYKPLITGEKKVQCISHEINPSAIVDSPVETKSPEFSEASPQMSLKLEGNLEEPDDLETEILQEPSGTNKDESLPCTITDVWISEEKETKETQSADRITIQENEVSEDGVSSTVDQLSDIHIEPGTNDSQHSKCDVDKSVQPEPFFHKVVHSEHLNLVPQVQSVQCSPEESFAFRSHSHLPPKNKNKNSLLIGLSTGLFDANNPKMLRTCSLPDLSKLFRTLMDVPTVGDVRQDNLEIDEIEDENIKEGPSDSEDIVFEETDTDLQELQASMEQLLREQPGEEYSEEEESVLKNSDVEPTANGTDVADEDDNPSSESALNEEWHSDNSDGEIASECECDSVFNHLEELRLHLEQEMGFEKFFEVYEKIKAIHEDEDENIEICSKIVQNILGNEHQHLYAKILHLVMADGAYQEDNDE
UniProt Q8WTQ7, sequence (whole entry, looked up): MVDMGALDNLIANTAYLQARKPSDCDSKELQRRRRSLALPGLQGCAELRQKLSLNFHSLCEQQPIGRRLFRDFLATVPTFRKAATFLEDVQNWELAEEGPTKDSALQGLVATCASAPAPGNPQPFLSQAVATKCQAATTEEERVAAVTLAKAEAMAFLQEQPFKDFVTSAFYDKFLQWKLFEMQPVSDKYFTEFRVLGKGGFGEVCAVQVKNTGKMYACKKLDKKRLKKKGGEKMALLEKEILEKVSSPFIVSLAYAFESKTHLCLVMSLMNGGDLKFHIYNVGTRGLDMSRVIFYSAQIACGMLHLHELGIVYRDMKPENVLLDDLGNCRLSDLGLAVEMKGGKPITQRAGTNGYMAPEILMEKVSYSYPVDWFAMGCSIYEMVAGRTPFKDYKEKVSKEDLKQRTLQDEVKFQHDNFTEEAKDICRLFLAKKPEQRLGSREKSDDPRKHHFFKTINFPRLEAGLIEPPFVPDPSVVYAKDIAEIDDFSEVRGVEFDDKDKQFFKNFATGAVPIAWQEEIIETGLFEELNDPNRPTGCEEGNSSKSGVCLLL

Block 1
Host: mouse
Matrix: microsomes or S9
Tested at: 2 µM
Time: 0.5 h
| SMILES | remaining compound |
| --- | --- |
| CCc1ccc(NC(=O)CN(CCc2ccccc2)S(=O)(=O)c2ccc(C)cc2)cc1 | 0.019% |
| O=c1ccc2cnc(Nc3cnn(C4CCNCC4)c3)nc2n1C1CCCCCC1 | 21.6% |
| CN(C(=O)c1cc2c(s1)-c1ccsc1CC2)C1CCCCC1 | 0.127% |
| O=C(NC1CCN(Cc2ccc3c(c2)OCO3)CC1)c1cc2ccc3ccccc3c2o1 | 1.77% |
| CCC(=O)N(CCC1(c2ccc(C)cc2)CCOC(C)(C)C1)Cc1ccccc1 (centres unmarked) | 0.12% |
| CCCC(=O)c1cnc2c(OCC)nccc2c1N[C@H](C)c1ccccc1 | 4.42% |

Block 2
Technique: PRP chromatography
Notes: linear fit, 1 mL
| Structure (SMILES) | logD 1,9-decadiene/water [log units] |
| --- | --- |
| CC(C)C[C@@H]1NC(=O)[C@@H](C)NC(=O)[C@H](C)NC(=O)[C@H](C)NC(=O)[C@H](C(C)C)NC(=O)[C@H](CC(C)C)NC(=O)[C@@H](CC(C)C)NC1=O | -2.3 |
| CC(C)C[C@@H]1NC(=O)[C@H](CC(C)C)NC(=O)[C@@H](CC(C)C)NC(=O)[C@@H](CC(C)C)NC(=O)[C@@H](Cc2cscn2)NC(=O)[C@H](CC(C)C)NC(=O)[C@@H](CC(C)C)NC1=O | 1.57 |
| CC(C)C[C@@H]1NC(=O)[C@H](C(C)C)NC(=O)[C@H](Cc2cscn2)NC(=O)[C@H](CC(C)C)NC(=O)[C@@H](CCC(=O)N2CCCC2)NC(=O)[C@H](CC(C)C)NC(=O)[C@@H](CC(C)C)NC1=O | -1.11 |
| CC(C)C[C@@H]1NC(=O)[C@H](CC(C)C)NC(=O)[C@@H](C(C)C)NC(=O)[C@H](C)NC(=O)[C@H](C(C)C)NC(=O)[C@H](C)NC(=O)[C@H](C)NC1=O | -2.53 |
| CC(C)C[C@@H]1NC(=O)[C@H](CC(C)C)NC(=O)[C@@H](CC(C)C)NC(=O)[C@@H](CC(C)C)NC(=O)[C@@H](CCC(=O)N2CCCC2)NC(=O)[C@H](CC(C)C)NC(=O)[C@@H](CC(C)C)NC1=O | 1.03 |
| CC(C)C[C@@H]1NC(=O)[C@H](C)NC(=O)[C@@H](CC(C)C)NC(=O)[C@H](C(C)C)NC(=O)[C@H](CC(C)C)NC(=O)[C@@H](CC(C)C)NC(=O)[C@H](CC(C)C)NC1=O | 0.746 |
| CC(C)C[C@@H]1NC(=O)[C@H](C(C)C)NC(=O)[C@H](CCC(=O)N2CCCC2)NC(=O)[C@H](CCC(=O)N2CCCC2)NC(=O)[C@@H](CCC(=O)N2CCCC2)NC(=O)[C@H](CC(C)C)NC(=O)[C@@H](CC(C)C)NC1=O | -4.42 |

Block 3
Cell line: HaCaT
Tested at: 100 µM
Time: 18 h
| Compound | viability [%] |
| --- | --- |
| COC(=O)N[C@H](C(=O)N1CCC[C@H]1c1nc(-c2ccc(-c3ccc(-c4c[nH]c([C@@H]5CCCN5C(=O)[C@@H](NC(=O)OC)C(C)C)n4)cc3)cc2)c[nH]1)C(C)C | 32.1 |
| S=P(N1CC1)(N1CC1)N1CC1 | 110 |
| NC(=O)N/N=C/c1ccc([N+](=O)[O-])o1 | 85.7 |
| CN(C)CCN(Cc1ccc(Cl)cc1)c1ccccn1 | 111 |
| Cc1cccc(C)c1OCC(C)N (centres unmarked) | 112 |
| NNc1nnc(NN)c2ccccc12 | 108 |

Block 4
Compound: CCC(=O)N[C@H]1CC[C@@H](C(=O)N(C)c2ccc(-c3nc4ccccc4o3)cc2)C1
Observed: cell-free assay
Technique: competition with immobilised ligand
Tested at: 1 µM
| target | remaining binding [%] |
| --- | --- |
| PAK6 (Homo sapiens, UniProt Q9NQU5) | 100 |
| BRAF (Homo sapiens, UniProt P15056) | 100 |
| TESK1 (Homo sapiens, UniProt Q15569) | 100 |
| eIF-2-alpha kinase GCN2, C-terminal kinase domain (EIF2AK4, Homo sapiens, UniProt Q9P2K8, S808G) | 100 |
| Tyrosine-protein kinase ABL1, non-phosphorylated (ABL1, Homo sapiens, UniProt P00519, F317L) | 86 |

Block 5
SMILES: Nc1nc(Nc2ccc(S(N)(=O)=O)cc2)nn1C(=O)c1c(F)cccc1F
Observed: enzyme activity
Action: inhibitor
Tested at: 0.5 µM
Relative to: control
| target | remaining activity [%] |
| --- | --- |
| NEK1 (Homo sapiens, UniProt Q96PY6) | 76.3 |
| ACVR1B (Homo sapiens, UniProt P36896) | 118 |
| MAPKAPK2 (Homo sapiens, UniProt P49137) | 95.8 |
| JAK3 (Homo sapiens, UniProt P52333) | 8.5 |
| MAP2K2 (Homo sapiens, UniProt P36507) | 85.6 |
| ARAF (Homo sapiens, UniProt P10398) | 93.1 |
| NEK6 (Homo sapiens, UniProt Q9HC98) | 102 |
| TEK (Homo sapiens, UniProt Q02763) | 84.2 |
| TAOK2 (Homo sapiens, UniProt Q9UL54) | 8.93 |
| LCK (Homo sapiens, UniProt P06239) | 87.9 |
| ULK2 (Homo sapiens, UniProt Q8IYT8) | 102 |
| TBK1 (Homo sapiens, UniProt Q9UHD2) | 80 |
| MST1R (Homo sapiens, UniProt Q04912) | 115 |
| GRK7 (Homo sapiens, UniProt Q8WTQ7) | 65.9 |
| MAP3K5 (Homo sapiens, UniProt Q99683) | 103 |
| MERTK (Homo sapiens, UniProt Q12866) | 70.2 |
| MAPK3 (Homo sapiens, UniProt P27361) | 108 |
| FRK (Homo sapiens, UniProt P42685) | 90.9 |
| RPS6KA2 (Homo sapiens, UniProt Q15349) | 42.2 |
| MAP3K14 (Homo sapiens, UniProt Q99558) | 106 |

For quick reference, copied from above (block 3):
| Compound | viability [%] |
| --- | --- |
| COC(=O)N[C@H](C(=O)N1CCC[C@H]1c1nc(-c2ccc(-c3ccc(-c4c[nH]c([C@@H]5CCCN5C(=O)[C@@H](NC(=O)OC)C(C)C)n4)cc3)cc2)c[nH]1)C(C)C | 32.1 |
| S=P(N1CC1)(N1CC1)N1CC1 | 110 |
| NC(=O)N/N=C/c1ccc([N+](=O)[O-])o1 | 85.7 |
| CN(C)CCN(Cc1ccc(Cl)cc1)c1ccccn1 | 111 |
| Cc1cccc(C)c1OCC(C)N (centres unmarked) | 112 |
| NNc1nnc(NN)c2ccccc12 | 108 |
